Published values collected from several papers.
Compare with care: the assays were run in different laboratories.
Organism: Pseudomonas aeruginosa

The MIC of `C=C1NC(=O)C2CSCC3NC(=O)C(CSC(C)C(NC(=S)C(Cc4cnc[nH]4)NC(=O)c4csc(C(C)NC(C)=O)n4)C(=O)N[C@H](CC(C)C(=O)NC(=O)CC(C(=O)O)NC(=O)C(C)NC3=O)C(=O)N2)NC(=O)[C@@H]2CCCN2C(=O)[C@@H](CC(C)C)NC1=O` (stereo partly shown) is reported as > 32 µg/mL (bacterial growth; ATCC 27853).
`CCCCCCCC(=O)N[C@@H](CCN)C(=O)N[C@H](C(=O)N[C@@H](CCN)C(=O)N[C@H]1CCNC(=O)[C@H]([C@@H](C)O)NC(=O)[C@H](CCN)NC(=O)[C@H](CCN)NC(=O)[C@H](CC(C)C)NC(=O)[C@@H](Cc2cc(F)c(F)c(F)c2)NC(=O)[C@H](CCN)NC1=O)[C@@H](C)O` gave an MIC of < 0.125 µg/mL (broth microdilution; PAO1, colistin-susceptible).
The MIC of `CCn1c(-c2ccc(Br)cc2)c(-c2ccc(Br)cc2)n(CC)c1=[Se]` is reported as > 40 µM (broth microdilution; carbapenem-resistant BAA-2108; 24 h).
`C#CCOc1ccc(CN[C@@]2(C)C[C@H](O[C@H]3[C@H](Oc4c5cc6cc4Oc4ccc(cc4Cl)[C@@H](O)[C@@H](NC(=O)[C@@H](CC(C)C)NC)C(=O)N[C@@H](CC(N)=O)C(=O)N[C@H]6C(=O)N[C@H]4C(=O)N[C@H](C(=O)N[C@H](C(=O)N[C@@H](CCCNC(=N)N)C(N)=O)c6cc(O)cc(O)c6-c6cc4ccc6O)[C@H](O)c4ccc(c(Cl)c4)O5)O[C@H](CO)[C@@H](O)[C@@H]3O)O[C@@H](C)[C@H]2O)cc1OC` gave an MIC of > 128 µg/mL (broth microdilution; ATCC 10145, cation-adjusted Mueller-Hinton broth; 18 to 20 h, 37 °C, 0.002% polysorbate 80).
`O=C(O)CN(CC(=O)O)CP(=O)(O)O` gave an MIC of 16 µg/mL (IMP-7 producer; 32 µg/mL, MIC of meropenem, with: meropenem).
For `CC[C@H](C)[C@H](NC(=O)[C@@H](CCCNC(=N)N)NC(=O)[C@H](CCCNC(=N)N)NC(=O)[C@@H]1CCCN1C(=O)[C@@H]1CCCN1C(=O)[C@H](CCCNC(=N)N)NC(=O)[C@@H]1CCCN1C(=O)[C@H](CCCNC(=N)N)NC(=O)[C@@H]1CCCN1C(=O)[C@H](CC(C)C)NC(=O)[C@H](Cc1ccc(O)cc1)NC(=O)[C@@H]1CCCN1C(=O)[C@H](Cc1ccccc1)NC(=O)[C@H](CCCCN)NC(=O)[C@H](CC(=O)O)NC(=O)[C@@H](N)C(C)C)C(=O)N[C@@H](Cc1ccc(O)cc1)C(=O)N[C@@H](CC(N)=O)C(=O)N[C@H](CCCNC(=N)N)C(N)=O`, the MIC was 128 µg/mL (broth microdilution; DSM 1117; 18 h, 37 °C, 25% MHB2).
`CC[C@H](C)[C@H](NC(=O)[C@H](CCCCN)NC(=O)[C@@H](NC(=O)[C@@H](NC(=O)[C@H](CC(C)C)NC(=O)[C@H](CCCNC(=N)N)NC(=O)[C@@H](NC(=O)[C@H](CC(C)C)NC(=O)[C@H](CCCNC(=N)N)NC(=O)CNC(=O)[C@H](Cc1ccccc1)NC(=O)[C@@H](N)CCCNC(=N)N)[C@@H](C)CC)[C@@H](C)CC)C(C)C)C(=O)N[C@@H](C)C(=O)N[C@@H](CCCNC(=N)N)C(=O)N[C@@H](CCCNC(=N)N)C(=O)N[C@@H](C)C(=O)N[C@@H](Cc1c[nH]cn1)C(=O)N[C@@H](CCCNC(=N)N)C(=O)N[C@@H](C)C(=O)N[C@@H](CCCNC(=N)N)C(=O)N[C@@H](CO)C(=O)N[C@@H](C)C(=O)N[C@H](C(=O)N[C@@H](CCCCN)C(=O)N[C@@H](C)C(=O)N[C@@H](C)C(=O)N[C@@H](CO)C(=O)N[C@@H](CC(N)=O)C(=O)N[C@H](C(=O)N[C@@H](C)C(=O)N[C@@H](C)C(=O)N[C@@H](CC(C)C)C(=O)N[C@@H](C)C(=O)N[C@@H](Cc1c[nH]cn1)C(=O)NCC(=O)N[C@@H](C)C(=O)O)C(C)C)C(C)C` gave an MIC of 1.03 µM (bacterial growth, broth microdilution; cation-adjusted Mueller Hinton broth; 18 h, 37 °C).
`C#CCNC(=O)[C@H]1NC(=O)[C@H]2NC(=O)[C@H](NC(=O)[C@@H]3NC(=O)[C@H](CC(N)=O)NC(=O)[C@H](NC(=O)[C@@H](CC(C)C)NC)[C@H](O)c4ccc(c(Cl)c4)Oc4cc3cc(c4O[C@@H]3O[C@H](CO)[C@@H](O)[C@H](O)[C@H]3O[C@H]3C[C@](C)(N)[C@H](O)[C@H](C)O3)Oc3ccc(cc3Cl)[C@H]2O)c2ccc(O)c(c2)-c2c(O)cc(O)cc21` gave an MIC of 43 µM (broth microdilution; ATCC 25922, cation-adjusted Mueller-Hinton broth).
`N=C(N)NCCC[C@H](NC(=O)[C@H](CCCNC(=N)N)NC(=O)[C@H](Cc1ccccc1)NC(=O)[C@H](CO)NC(=O)[C@H](Cc1ccccc1)NC(=O)[C@H](Cc1c[nH]c2ccccc12)NC(=O)[C@H](Cc1ccccc1)NC(=O)[C@H](CO)NC(=O)[C@H](Cc1ccccc1)NC(=O)[C@H](CCCNC(=N)N)NC(=O)[C@@H](N)CCCNC(=N)N)C(N)=O` has an MIC of 128 µM (broth microdilution; 27853, Mueller-Hinton broth; 24 h, 37 °C, lowest concentration, 95% inhibition, with: BSA).
With `CN[C@H](CC(C)C)C(=O)N[C@H]1C(=O)N[C@@H](CC(N)=O)C(=O)N[C@H]2C(=O)N[C@H]3C(=O)N[C@H](C(=O)N[C@H](C(=O)O)c4cc(O)cc(O)c4-c4cc3ccc4O)[C@H](O)c3ccc(c(Cl)c3)Oc3cc2cc(c3O[C@@H]2O[C@H](CO)[C@@H](O)[C@H](O)[C@H]2O[C@H]2C[C@](C)(NCc3ccc(OCc4cn(CC(=O)N[C@H](C(=O)N[C@@H](CCN)C(=O)N[C@H]5CCNC(=O)[C@H]([C@@H](C)O)NC(=O)[C@H](CCN)NC(=O)[C@H](CCN)NC(=O)[C@H](CC(C)C)NC(=O)[C@@H](CC(C)C)NC(=O)[C@H](CCN)NC5=O)[C@@H](C)O)nn4)c(OC)c3)[C@H](O)[C@H](C)O2)Oc2ccc(cc2Cl)[C@H]1O` the MIC was 6 µM (broth microdilution; ATCC 27853, cation-adjusted Mueller-Hinton broth).
`CC[C@H](C)[C@H](NC(=O)[C@@H](CCCNC(=N)N)NC(=O)[C@H](CCCNC(=N)N)NC(=O)[C@@H]1CCCN1C(=O)[C@@H]1CCCN1C(=O)[C@H](CCCCNC(=N)N)NC(=O)[C@@H]1CCCN1C(=O)[C@H](CCCNC(=N)N)NC(=O)[C@@H]1CCCN1C(=O)[C@H](CC(C)C)NC(=O)[C@H](Cc1ccc(O)cc1)NC(=O)[C@@H]1CCCN1C(=O)[C@@H]1CCCN1C(=O)[C@H](CCCCN)NC(=O)[C@H](CC(=O)O)NC(=O)[C@@H](N)C(C)C)C(=O)N[C@@H](Cc1ccc(O)cc1)C(=O)N[C@@H](CC(N)=O)C(=O)N[C@H](CCCNC(=N)N)C(N)=O` gave an MIC of 64 µg/mL (broth microdilution; DSM 1117; 18 h, 37 °C, 25% MHB2).
`CC(C)C[C@@H]1NC(=O)[C@@H](CC(C)C)NC(=O)[C@H](CCN)NC(=O)[C@@H](NC(=O)[C@H](CCN)NC(=O)[C@@H](NC(=O)CCOCCOCCOCCN=[N+]=[N-])[C@@H](C)O)CCNC(=O)[C@H]([C@@H](C)O)NC(=O)[C@H](CCN)NC(=O)[C@H](CCN)NC1=O` gave an MIC of 28 µM (broth microdilution; ATCC 35218, cation-adjusted Mueller-Hinton broth).
The MIC of `CN[C@@H]1[C@H](O)[C@H](NC)[C@H]2O[C@]3(O)[C@H](O[C@@H]2[C@H]1O)O[C@H](C)C[C@H]3NC(=O)CNC(C)(C)C` is reported as 200 µg/mL (microbial growth, broth dilution; PAO1).
The MIC of `CC(=O)N[C@H](Cc1ccc(C(F)(F)F)cc1)C(=O)N[C@@H](CCN)C(=O)N[C@H](C(=O)N[C@@H](CCN)C(=O)N[C@H]1CCNC(=O)[C@H]([C@@H](C)O)NC(=O)[C@H](CCN)NC(=O)[C@H](CCN)NC(=O)[C@H](CC(C)C)NC(=O)[C@@H](Cc2ccccc2)NC(=O)[C@H](CCN)NC1=O)[C@@H](C)O` is reported as 0.25 to 0.5 µg/mL (broth microdilution; PAO1, colistin-susceptible).
`CC(C)C[C@@H]1NC(=O)[C@H](CCCCN)NC(=O)CNC(=O)[C@H]2CCCN2C(=O)[C@H](CCCCN)NC(=O)[C@H](CC(C)C)NC(=O)[C@H](CCCCN)NC(=O)[C@H](CC(C)C)NC(=O)[C@H](CCCCN)NC(=O)C(N)CCC=CCCCC(C(N)=O)NC(=O)[C@H](CCCCN)NC(=O)[C@H](CC(C)C)NC(=O)[C@H](CCCCN)NC1=O` (stereo partly shown) gave an MIC of 8 µM (broth microdilution; ATCC 9027, Mueller-Hinton broth; 18 h, 37 °C).
The MIC of `CC(C)C[C@H](NC(=O)[C@H](CCC(=O)O)NC(=O)[C@H](C)NC(=O)[C@H](CC(C)C)NC(=O)[C@H](CCC(=O)O)NC(=O)[C@H](C)NC(=O)[C@H](CCC(N)=O)NC(=O)[C@H](CC(C)C)NC(=O)[C@H](CCC(=O)O)NC(=O)[C@H](Cc1ccc(O)cc1)NC(=O)[C@H](CC(C)C)NC(=O)[C@H](CCC(N)=O)NC(=O)[C@H](C)NC(=O)[C@H](CCC(=O)O)NC(=O)[C@H](CC(C)C)NC(=O)[C@H](CCC(N)=O)NC(=O)[C@H](C)NC(=O)[C@H](CC(C)C)NC(=O)[C@H](CCC(=O)O)NC(=O)[C@H](C)NC(=O)[C@@H](N)CCC(N)=O)C(N)=O` is reported as > 250 µM (ATCC 27853; 24 h).

For quick reference, copied from above:
`C#CCOc1ccc(CN[C@@]2(C)C[C@H](O[C@H]3[C@H](Oc4c5cc6cc4Oc4ccc(cc4Cl)[C@@H](O)[C@@H](NC(=O)[C@@H](CC(C)C)NC)C(=O)N[C@@H](CC(N)=O)C(=O)N[C@H]6C(=O)N[C@H]4C(=O)N[C@H](C(=O)N[C@H](C(=O)N[C@@H](CCCNC(=N)N)C(N)=O)c6cc(O)cc(O)c6-c6cc4ccc6O)[C@H](O)c4ccc(c(Cl)c4)O5)O[C@H](CO)[C@@H](O)[C@@H]3O)O[C@@H](C)[C@H]2O)cc1OC` gave an MIC of > 128 µg/mL (broth microdilution; ATCC 10145, cation-adjusted Mueller-Hinton broth; 18 to 20 h, 37 °C, 0.002% polysorbate 80).
`CC(C)C[C@@H]1NC(=O)[C@H](CCCCN)NC(=O)CNC(=O)[C@H]2CCCN2C(=O)[C@H](CCCCN)NC(=O)[C@H](CC(C)C)NC(=O)[C@H](CCCCN)NC(=O)[C@H](CC(C)C)NC(=O)[C@H](CCCCN)NC(=O)C(N)CCC=CCCCC(C(N)=O)NC(=O)[C@H](CCCCN)NC(=O)[C@H](CC(C)C)NC(=O)[C@H](CCCCN)NC1=O` (stereo partly shown) gave an MIC of 8 µM (broth microdilution; ATCC 9027, Mueller-Hinton broth; 18 h, 37 °C).
`CCCCCCCC(=O)N[C@@H](CCN)C(=O)N[C@H](C(=O)N[C@@H](CCN)C(=O)N[C@H]1CCNC(=O)[C@H]([C@@H](C)O)NC(=O)[C@H](CCN)NC(=O)[C@H](CCN)NC(=O)[C@H](CC(C)C)NC(=O)[C@@H](Cc2cc(F)c(F)c(F)c2)NC(=O)[C@H](CCN)NC1=O)[C@@H](C)O` gave an MIC of < 0.125 µg/mL (broth microdilution; PAO1, colistin-susceptible).
